Measured values from different studies.
Each line is one published result; not all experiments were run side by side. “And” joins repeats or separate records; there may be more than shown. Numbers after ± are the reported error. In brackets after ≈: the same amount, converted by molar mass.

Compound = CC[C@H](C)[C@@H]1NC(=O)[C@@H]2CCCN2C(=O)[C@H](CC(C)C)NC(=O)[C@H](CC(C)C)NC(=O)CNC(=O)[C@@H](NC(=O)[C@@H](NC(=O)[C@H](CC(=O)O)NC(=O)CNC(=O)[C@@H](NC(=O)[C@H](C)NC(=O)CNC(=O)[C@H](CCCCN)NC(=O)[C@H](CC(C)C)NC(=O)[C@H](CC(C)C)NC(=O)[C@H](CCCCN)NC(=O)CNC(=O)[C@@H](NC(=O)[C@@H](N)CC(C)C)C(C)C)C(C)C)C(C)C)CSSC[C@@H](C(=O)O)NC1=O; assay = RNA-seq, measured: Calhm6; test system = mouse, traumatic brain injury model, frontal cortex and hippocampus; conditions = dose not given; how to read = relative to: TBI alone; measurement = log2 fold change; result = -2.98
Compound = COc1ccc(CCNC(=O)c2cc(Nc3ccccc3)nc3ccccc23)cc1OC; target or system = Vero-E6; assay = CellTiter-Glo ATP; conditions = concentration not given, 72 h, first round 5-point; how to read = relative to: DMSO 0%, hyamine -100%, more negative, more toxic; measurement = cytotoxicity efficacy; result = 0%
Compound = O=C(O)/C=C/C(=O)O.Oc1cccc2[nH]cc(CCNC3CCCCC3)c12; test system = C57BL/6J mice; conditions = subcutaneous, 0.3 mg/kg; how to read = relative to: pre-session baseline; measurement = body temperature change; result = 0.1 ± 0.1 °C
Compound = CCCCC1(CCCC)CN(c2ccccc2)c2cc(SC)c(OCC(=O)N[C@@H](C(=O)NCC(=O)O)c3ccccc3)cc2S(=O)(=O)C1; assay = measured: HDL cholesterol; test system = human, serum; conditions = 15 mg once daily, day 1; measurement = serum HDL-C; result = 45.4 mg/dL
Compound = CCOc1ccc(NC(=O)c2cnn(-c3ccc(C)c(Cl)c3)c2C2CCNCC2)cc1; target or system = Vero-E6; assay = CellTiter-Glo ATP; conditions = concentration not given, 72 h, first round 5-point; how to read = relative to: DMSO 0%, hyamine -100%, more negative, more toxic; measurement = cytotoxicity efficacy; result = 0%
Compound = CC1=C(/C=C/C(C)=C/C=C/C(C)=C/C(=O)O)C(C)(C)CCC1; target or system = human coronavirus OC43; assay = virus-induced cell killing; test system = MRC-5; conditions = screen; measurement = maximum inhibition; result = 16%
Compound = C=CCNCCc1c[nH]c2cccc(O)c12.C=CCNCCc1c[nH]c2cccc(O)c12.O=C(O)/C=C/C(=O)O; test system = C57BL/6J mice; conditions = subcutaneous, 0.03 mg/kg; how to read = relative to: pre-session baseline; measurement = body temperature change; result = -0.2 ± 0.2 °C
Compound = COc1cc(CCNC(C)c2ccccc2O)c(OC)cc1Br.Cl (stereo not drawn); target or system = 5-HT2A L123V mutant, human; assay = Gq dissociation, BRET; how to read = relative to: wild-type 5-HT2A; measurement = fold loss in potency; result = 42 fold
Compound = COc1ccc2c(c1)[nH]c1c(C)nccc12; target or system = DU-145; assay = bisulfite pyrosequencing, measured: RASSF1A promoter CpG site 12; conditions = 10 µM, 16 h; measurement = DNA methylation; result = 90.2%
Compound = Nc1ncnc2c1ncn2[C@@H]1O[C@@H]2COP(=O)(O)O[C@H]3[C@@H](O)[C@H](n4cnc5c(=O)[nH]cnc54)O[C@@H]3COP(=O)(O)O[C@H]2[C@H]1O; target or system = West Nile virus; assay = RNA sequencing Reactome analysis, measured: Interferon Signaling (R-HSA-913531); test system = HFF-1; conditions = concentration not given, upregulated pathways, added: West Nile virus infection; how to read = relative to: WNV-infected without compound; measurement = fold enrichment; result = 8.26
Compound = C/C=C1\NC(=O)[C@H]2CSSCC/C=C/[C@H](CC(=O)N[C@H](C(C)C)C(=O)N2)OC(=O)[C@H](C(C)C)NC1=O; target or system = human coronavirus OC43; assay = virus-induced cell killing; test system = MRC-5; conditions = maximum over 10 doses; measurement = maximum inhibition; result = 0%
Compound = CC(C)NCCc1c[nH]c2cccc(O)c12.O=C(O)/C=C/C(=O)O; test system = C57BL/6J mice; conditions = subcutaneous, 0.3 mg/kg; how to read = relative to: pre-session baseline; measurement = body temperature change; result = 0 ± 0.1 °C
Compound = CN(C)[C@@H]1C(O)=C(C(N)=O)C(=O)[C@@]2(O)C(O)=C3C(=O)c4c(O)cccc4[C@@](C)(O)[C@H]3C[C@@H]12; target or system = Salmonella enterica; conditions = 20 h, pH 5.5; measurement = MIC; result = 1 µg/mL (≈ 2.25 µM)
Compound = C#Cc1cccc(Nc2ncnc3cc(OC)c(OCCCCCCC(=O)NO)cc23)c1; target or system = human coronavirus OC43; assay = virus-induced cell killing; test system = MRC-5; conditions = maximum over 10 doses; measurement = maximum inhibition; result = 0%
Compound = N.N.[Cl][Pt][Cl]; target or system = A2780cisR; assay = cell viability, MTT; conditions = 48 h; measurement = IC50; result = 38.3 µM
Compound = NC(=O)Nc1cc(-c2cccc(F)c2)sc1C(=O)N[C@H]1CCCNC1; target or system = human coronavirus OC43; assay = virus-induced cell killing; test system = MRC-5; conditions = maximum over 10 doses; measurement = maximum inhibition; result = 0%
Compound = CN1CCN(S(=O)(=O)c2cc([N+](=O)[O-])ccc2N(CCOS(C)(=O)=O)CCOS(C)(=O)=O)CC1; test system = NSG mice, sample DB PDX; conditions = intraperitoneal, 25 mg/kg weekly x3; how to read = relative to: treated over vehicle; measurement = EFS ratio (T/C); result = 9.2
Compound = CCN(CC)CCNC(=O)c1c(C)[nH]c(/C=C2\C(=O)Nc3ccc(F)cc32)c1C; target or system = human coronavirus OC43; assay = virus-induced cell killing; test system = MRC-5; conditions = screen; measurement = maximum inhibition; result = 9.25%
Compound = C#CCN(C)[C@H](C)Cc1ccccc1; assay = footprint test; test system = MPTP-induced Parkinson's disease mouse model; conditions = 10 mg/kg; measurement = stride length; result = 6.81 cm and 6.65 cm and 6.59 cm and 6.42 cm and 6.45 cm and 5.4 cm and 7.74 cm
Compound = CC[C@H](C)[C@@H]1NC(=O)[C@H](CO)NC(=O)[C@@H]2CCCN2C(=O)[C@@H](NC(=O)CN)CSSC[C@@H]2NC(=O)CNC(=O)[C@H](C)NC(=O)[C@H](CC(C)C)NC(=O)[C@@H]3CSSC[C@@H](C(=O)NCC(=O)O)NC(=O)[C@H](Cc4ccccc4)NC(=O)CNC(=O)[C@H](CC(N)=O)NC(=O)[C@@H]4CCCN4C(=O)CNC(=O)[C@H](CSSC[C@H](NC(=O)[C@H](CCCNC(=N)N)NC(=O)[C@H](Cc4c[nH]cn4)NC(=O)[C@H](CCCNC(=N)N)NC(=O)[C@H](CCCCN)NC(=O)[C@H](C(C)C)NC(=O)[C@H](CCCNC(=N)N)NC(=O)[C@H](CC(N)=O)NC1=O)C(=O)N[C@@H](CCCCN)C(=O)N[C@@H](CCC(N)=O)C(=O)N[C@@H](CC(=O)O)C(=O)N[C@@H](CO)C(=O)N[C@@H](CC(=O)O)C(=O)N3)NC(=O)[C@H](C(C)C)NC2=O; target or system = HEK293-TB; assay = Wnt signaling; conditions = added: exogenous Wnt3a; measurement = IC50; result = > 100 µM
Compound = CC(C)N1CCC(NC2CCN(c3cccc(-c4cc5cc(F)ccc5[nH]4)c3)CC2)CC1; target or system = Malme-3M; measurement = GI50; result = 1.94 µM
Compound = Cc1nc(Nc2[nH]nc3c2CN(C(=O)N[C@H](CN(C)C)c2ccccc2)C3(C)C)c2sccc2n1; target or system = human coronavirus OC43; assay = virus-induced cell killing; test system = MRC-5; conditions = maximum over 10 doses; measurement = maximum inhibition; result = 0%
Compound = C[C@H]1O[C@@H](O[C@H]2CC[C@@]3(C)[C@@H](CC[C@]4(C)[C@@H]3C=C[C@]35OC[C@@]6(CCC(C)(C)C[C@H]63)[C@@H](O)C[C@]54C)[C@]2(C)CO)[C@H](O)[C@@H](O[C@@H]2O[C@H](CO)[C@@H](O)[C@H](O)[C@H]2O)[C@H]1O; assay = H&E staining; test system = Mus musculus, chronic-plus-binge ethanol-fed, AAV8-TBG-Null vector, liver; conditions = oral, high dose; how to read = relative to: section; measurement = adipose area; result = 13.4% and 12% and 15.7% and 14.5% and 12.6% and 13.7% and 9.1%
Compound = O=C(c1ccc(OCCN2CCCCC2)cc1)c1c(-c2ccc(O)cc2)sc2cc(O)ccc12; target or system = human coronavirus OC43; assay = virus-induced cell killing; test system = MRC-5; conditions = maximum over 10 doses; measurement = maximum inhibition; result = 1.26%
Compound = Cc1cn(-c2cc(NC(=O)c3ccc(C)c(Nc4nccc(-c5cccnc5)n4)c3)cc(C(F)(F)F)c2)cn1; test system = Alzheimer's disease patients; conditions = dose not given, baseline, group mean; how to read = direction not given; measurement = CDR-SOB score; result = 5.2 ± 1.9
Compound = O=C(Cc1cccc(OC(F)(F)F)c1)Nc1ccc(CCCCc2nnc(NC(=O)Cc3ccccn3)s2)nn1; target or system = human coronavirus OC43; assay = virus-induced cell killing; test system = MRC-5; conditions = maximum over 10 doses; measurement = maximum inhibition; result = 1.12%
Compound = CC(C)(C)NCCc1c[nH]c2cccc(O)c12.CC(C)(C)NCCc1c[nH]c2cccc(O)c12.O=C(O)/C=C/C(=O)O; test system = C57BL/6J mice; conditions = subcutaneous, 10 mg/kg; how to read = relative to: pre-session baseline; measurement = body temperature change; result = 0 ± 0.1 °C
Compound = COc1c(C)c2c(c(O)c1C/C=C(\C)CCC(=O)O)C(=O)OC2; target or system = NCI-H292; assay = cell proliferation; test system = lung cancer; measurement = IC50; result = 0.182 µM
Compound = CCCCNCCc1c[nH]c2cccc(O)c12.O=C(O)/C=C/C(=O)O; test system = C57BL/6J mice; conditions = subcutaneous, 0.1 mg/kg; how to read = relative to: pre-session baseline; measurement = body temperature change; result = 0 ± 0.2 °C
Compound = COc1c(CCC[P+](c2ccccc2)(c2ccccc2)c2ccccc2)cc2c(c1OC)OCO2.[I-]; target or system = Malme-3M; assay = SRB; measurement = TGI; result = -4.99 log M
Compound = CCCNCCc1c[nH]c2cccc(O)c12.CCCNCCc1c[nH]c2cccc(O)c12.O=C(O)/C=C/C(=O)O; test system = C57BL/6J mice; conditions = subcutaneous, 0.1 mg/kg; how to read = relative to: pre-session baseline; measurement = body temperature change; result = -0.3 ± 0.1 °C
Compound = Cn1cncc1C1=CN(c2ncnc3[nH]cnc23)CCS1; target or system = Malme-3M; conditions = melanoma cell line; measurement = TGI; result = 85.1 µM
Compound = CCNCCc1c[nH]c2cccc(O)c12.CCNCCc1c[nH]c2cccc(O)c12.O=C(O)CCC(=O)O; test system = C57BL/6J mice; conditions = subcutaneous, 0.3 mg/kg; how to read = relative to: pre-session; measurement = body temperature change; result = -0.2 ± 0.2 °C
Compound = COc1cc(CCC[P+](c2ccccc2)(c2ccccc2)c2ccccc2)c(OC)c2c1OCO2.[I-]; target or system = SW-620; assay = SRB; measurement = LC50; result = > -4 log M
Compound = C[C@]12CC[C@H]3[C@@H](CC=C4CC(O)CC[C@@]43CO)[C@@H]1CCC2O (stereo partly drawn); test system = GAN diet MASH rats; conditions = ip, 20 mg/kg, two weeks; how to read = relative to: GAN vehicle; measurement = plasma NEFA level; result = decreased
Compound = C[C@]12CC[C@H]3[C@@H](CCC4=CC(=O)CC[C@@H]43)[C@@H]1CC[C@@H]2OC(=O)CCc1ccccc1; target or system = THP-1; assay = pyroptotic LDH release; conditions = 2 µM, 40 min, added: LPS then nigericin; measurement = inhibition; result = 7.66%

Repeated from above:
Compound = CC(C)(C)NCCc1c[nH]c2cccc(O)c12.CC(C)(C)NCCc1c[nH]c2cccc(O)c12.O=C(O)/C=C/C(=O)O; test system = C57BL/6J mice; conditions = subcutaneous, 10 mg/kg; how to read = relative to: pre-session baseline; measurement = body temperature change; result = 0 ± 0.1 °C
Compound = COc1c(C)c2c(c(O)c1C/C=C(\C)CCC(=O)O)C(=O)OC2; target or system = NCI-H292; assay = cell proliferation; test system = lung cancer; measurement = IC50; result = 0.182 µM
Compound = CCCCNCCc1c[nH]c2cccc(O)c12.O=C(O)/C=C/C(=O)O; test system = C57BL/6J mice; conditions = subcutaneous, 0.1 mg/kg; how to read = relative to: pre-session baseline; measurement = body temperature change; result = 0 ± 0.2 °C
Compound = COc1c(CCC[P+](c2ccccc2)(c2ccccc2)c2ccccc2)cc2c(c1OC)OCO2.[I-]; target or system = Malme-3M; assay = SRB; measurement = TGI; result = -4.99 log M
